Experimental data pooled from the literature.
Compare with care: the assays were run in different laboratories.
Medium: plasma

With CC(C)(O)c1ncc([S@](N)(=O)=NC(=O)Nc2c3c(cc4c2CCC4)CCC3)s1 the AUC(0-inf) was 9560 ng·h/mL (healthy human volunteers; oral, 10 mg single dose, fasted, capsule formulation).
NC(=O)/C=C/c1cccc(S(=O)(=O)Nc2ccccc2)c1 — result for “AUC(0-inf) metabolic ratio”: 1.24 (human, moderate liver dysfunction; intravenous, 400 mg/m^2 belinostat, cycle 1 day -7, geometric mean; baseline: metabolite over belinostat).
For COc1cc2c(cc1OC)[C@H]1CC(=O)[C@H](CC(C)(C)O)CN1CC2 (racemic), “AUC(0-inf) metabolite share of plasma radioactivity” read 5.9% (healthy human male; oral, 25 mg, geometric mean).
For CONC(=O)/C=C/c1cccc(S(=O)(=O)Nc2ccccc2)c1, “AUC(0-inf) metabolic ratio” read 0.422 (human, normal liver function; intravenous, 400 mg/m^2 belinostat, cycle 1 day -7, geometric mean; baseline: metabolite over belinostat).
For CC(C)c1cnc(-c2cc(Cl)ccc2F)cc1Nc1ccncc1C(=O)NC(CO)CO, the AUC(0-inf) ratio was 30 to 40% (human, patients; oral, dose not given, CYP3A drug interaction, with: enzalutamide multiple dosing; baseline: cycle 2 day 1 over cycle 1 day 1).
O=C(O)/C=C/c1cccc(S(=O)(=O)Nc2ccccc2)c1 — result for “AUC(0-inf) metabolic ratio”: 0.452 (human, normal liver function; intravenous, 400 mg/m^2 belinostat, cycle 1 day -7, geometric mean; baseline: metabolite over belinostat).
With CCc1c2c(nc3ccc(O)cc13)-c1cc3c(c(=O)n1C2)COC(=O)[C@]3(O)CC the AUC(0-inf) was 528 ng·h/mL (human patients; intravenous, 32 mg/m^2 of parent drug).
For COc1cc2c(cc1OC)[C@H]1C[C@H](O)[C@H](CC(C)C(=O)O)CN1CC2 (relative stereo), “AUC(0-inf) metabolite share of plasma radioactivity” read 1.5% (healthy human male; oral, 25 mg, geometric mean).
With Cn1c(=O)oc2ccc(-c3ccc(CC(C#N)NC(=O)C4CNCCCO4)c(F)c3)cc21 (stereo not drawn) the AUC(0-inf) was 5680 ng·h/mL (human volunteers; 60 mg single dose, fasted, geometric mean).

A few entries again:
For COc1cc2c(cc1OC)[C@H]1C[C@H](O)[C@H](CC(C)C(=O)O)CN1CC2 (relative stereo), “AUC(0-inf) metabolite share of plasma radioactivity” read 1.5% (healthy human male; oral, 25 mg, geometric mean).
